# Measured values collected from several papers.
# Numbered parts are unrelated; each lists some results of a single study. “And” joins repeats or separate records; there may be more than shown. Changes are numbered by the printed parent chain.

# Series 1
# Target: OGT, full length, His-tagged (human)
# Technique: phage display, sequencing
# Matrix: in vitro
# Concentration: 1 µg OGT
# Setting: single substitutions, 15-mer displayed peptide, unchanged parent 16.7
# Baseline: input library
# Direction: higher = stronger binding
# Starting sequence: peptide; NSEYMPQYQIIFAHQ
Change,fold enrichment [fold]
GSEYMPQYQIIFAHQ [N1G],15.7
NSEYMPMYQIIFAHQ [Q7M],12.8
NSELMPQYQIIFAHQ [Y4L],7.02
NSEYMPQYQIIFAHE [Q15E],18.5
NSEYMPQYQIIGAHQ [F12G],3.45
NSEYMPQYHIIFAHQ [Q9H],1.64
NSEYMPQYQIITAHQ [F12T],7.43
NSEYMPQYQWIFAHQ [I10W],0.813

# Series 2
# Target: CEBPD, bZIP domain (human)
# Technique: DHFR protein complementation
# Matrix: yeast
# Setting: single substitutions, most at no-binding floor
# Baseline: wild-type JUN-FOS pair
# Direction: higher = stronger binding
# Starting sequence: JUN, bZIP domain (human); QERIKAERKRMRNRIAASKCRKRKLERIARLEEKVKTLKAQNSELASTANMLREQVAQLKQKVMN; partner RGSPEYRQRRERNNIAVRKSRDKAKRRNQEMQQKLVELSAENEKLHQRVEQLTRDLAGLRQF
Change,binding fitness [natural log]
V35P,-1.45
V56R,-1.49
L31P,-1.47
A29H,-1.36
A29V,-1.41
Q55G,-1.48
I28F,-1.33
L52W,-1.46

# Series 3
# Target: Centromere-binding protein 1, full length, N-terminal tag (CBF1, Saccharomyces cerevisiae, UniProt P17106, residues 1-351)
# Sequence of UniProt P17106 (whole entry, looked up): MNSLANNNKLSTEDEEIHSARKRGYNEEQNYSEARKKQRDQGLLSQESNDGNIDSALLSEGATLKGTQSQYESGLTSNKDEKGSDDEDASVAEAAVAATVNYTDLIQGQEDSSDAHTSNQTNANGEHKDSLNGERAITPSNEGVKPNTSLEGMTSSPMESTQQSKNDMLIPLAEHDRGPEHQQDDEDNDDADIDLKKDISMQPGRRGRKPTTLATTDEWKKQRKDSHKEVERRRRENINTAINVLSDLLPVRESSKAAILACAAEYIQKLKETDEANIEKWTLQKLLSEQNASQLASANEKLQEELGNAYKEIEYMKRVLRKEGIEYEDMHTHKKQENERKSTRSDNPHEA
# Technique: protein-binding microarray
# Molecule type: double-stranded DNA, one strand shown
# Matrix: in vitro
# Concentration: 0.8 µM
# Setting: whole 60-bp probe, no competitor
# Direction: higher = stronger binding
# Constant ends, left off below: … GTCTTGATTCGCTTGACGCTGCTG
Oligonucleotide,fluorescence intensity [a.u.]
CTAGGAGTGCTTTTTCACATGAAGGCCATCGGGTTC,529
GAAAATCAAACTTCTGGTCACATGAGTTGAACATAG,2660
TGTACGAAGCTATTGCACGTCCTTATAGTAGTTAGG,527
CTAAGAAGTGCTTGCCATGTGCTTTGAAAACTTTTC,807
CTAACGCAGCAAACCGTGATCACTGCGAGTATTTTC,665
TGTACGAAGCTATCGAACGTGTGTATAGTAGTTAGG,512
CTAATTATATACACCCACATGATTCTATAGACATTC,941
CTAACTGCACCTCCTAACATCACCATACTACGTTTC,577

# Other studies, line by line
Compound,cell line,test,test system,conditions,scale,measurement,value
CO[C@@H](C)c1c(Nc2ccc([C@H](N(C)C(=O)C3CCS(=O)(=O)CC3)C(F)(F)F)cc2)cnc2cc(Cl)nn12,normal organoid sample F,CellTiter-Glo,"human, normal-adjacent epithelium",1 µM,baseline: DMSO,viability,92.2% and 71.2%

# Repeated from above (series 1):
Change,fold enrichment [fold]
NSEYMPQYHIIFAHQ [Q9H],1.64
NSEYMPQYQWIFAHQ [I10W],0.813
